Measured values collected from several papers.
A part holds a random share of what one study measured. Positions count from the first letter of the parent shown.
Chain of UniProt Q9Y2X8 (whole entry, looked up): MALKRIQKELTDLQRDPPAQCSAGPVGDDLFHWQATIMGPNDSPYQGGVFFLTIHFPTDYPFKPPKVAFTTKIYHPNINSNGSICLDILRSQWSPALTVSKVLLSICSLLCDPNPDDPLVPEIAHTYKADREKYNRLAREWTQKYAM

Study 1
Target: CCNB2, cyclin fold, Cln2 fusion (human)
Method: yeast growth competition, sequencing
Matrix: yeast
Notes: weak parent motif
Relative to: not given
Reading: higher = stronger binding
Starting sequence: viral docking peptide; PGASRRLFGSSAD
For `AGASRRLFGSSAD [P1A]`, “normalised enrichment score” read -0.223.
`PGASRRLFASSAD [G9A]` — result for “normalised enrichment score”: 0.582.
`PGASRRLFGSSAA [D13A]` — result for “normalised enrichment score”: 0.794.

Study 2
Target: HLA class I histocompatibility antigen, A alpha chain, allele A*25:01 (Homo sapiens, UniProt P04439)
Observed: peptide-MHC binding
Form: peptide
Concentration: concentration not given
For `FTFERSKIK`, binding read “inactive”.
`MGMEQTMSV` — result for binding: “inactive”.
Under binding, `ESEVDDPAM` is recorded as “inactive”.

Other studies, line by line
Under cross-linked residues, `SEPTIN7 (Homo sapiens, UniProt Q16181)` is recorded as “D74 to E452” (SEPTIN9 (Homo sapiens, UniProt Q9UHD8); cross-linking MS; cell fractions; with: DHSO).
`ALDRLEKLLRCSRCTNILREPVCLGGCEHIFCSNCVSDCIGTGCPVCYTPAWIQDLKI (BARD1 RING domain (UniProt Q99728))` — result for “lacZ reporter activity”: 0 (UBE2D4 UBC core domain (UniProt Q9Y2X8); yeast two-hybrid; yeast; mostly zero background; relative to: not given, higher = stronger interaction).
